Published values of several laboratories.
Each line is one published result; not all experiments were run side by side. Values joined by “and” are separate records of one study, mostly repeats; a detail may differ. ± gives the spread as reported.

CNC(=O)c1ccc(-c2cnc3ncc(Cc4ccc5ncccc5c4)n3n2)cc1F
patients with adverse event (item: Insomnia, all grades; cancer patients; oral, 600 mg twice daily, other expansion cohort, any causality): 6%

COc1ccc2c(=O)n(C)c(-c3ccccc3)nc2c1
tissue concentration (Sprague-Dawley rat, skeletal muscle; oral, 30 mg/kg, 0.25 h): not detected

COc1ncc(-c2nc3c(n2C(C)C)[C@H](c2ccc(Cl)cc2)N(c2cc(Cl)cn(C)c2=O)C3=O)c(OC)n1
AUC(0-t) geometric mean (human patients, plasma; oral, 45 mg, 0-24 h, low-dose arm, cycle 2 day 1): 4720 ng·h/mL

Nc1ncnc2c1ncn2[C@H]1C[C@@H]2OP(=O)(O)OC[C@H]3O[C@@H](n4cnc5c(N)ncnc54)C[C@@H]3OP(=O)(O)OC[C@H]2O1
mean platelet volume (non-tumor-bearing mice, blood; intravenous, 1 mg/kg, toxicity study): 5.03 ± 0.42 fL

NC[C@@]1(CC(=O)O)[C@@H]2CC[C@H]3C[C@@H]2[C@@H]1C3
unbound AUC(0-inf) (human, severe renal impairment, plasma; dose not given, geometric mean): 5990 ng·h/mL

C[C@H]1O[C@@H](O[C@H]2[C@@H](O)C[C@H](O[C@H]3[C@@H](O)C[C@H](O[C@H]4CC[C@@]5(C)[C@H](CC[C@@H]6[C@@H]5C[C@@H](O)[C@]5(C)[C@@H](C7=CC(=O)OC7)CC[C@]65O)C4)O[C@@H]3C)O[C@@H]2C)C[C@H](O)[C@@H]1O
subjects with adverse event (item: headache; healthy men; oral, dose not given, 8 days, treatment-emergent, crossover trial): 0%

Cc1cc(Nc2ncnc3ccc(NC4=NC(C)(CO)CO4)cc23)ccc1Oc1ccn2ncnc2c1 (stereo not shown)
AUC(0-inf) (arithmetic mean) (human, plasma; oral, 300 mg tucatinib single dose, day 1, tucatinib alone): 485 ng·h/mL

CCCCCCOC(=O)NC(=N)c1ccc(NCc2nc3cc(C(=O)N(CCC(=O)OCC)c4ccccn4)ccc3n2C)cc1
participants with TEAE dry throat (human; oral, 75 mg, compound alone): 4.2%

O=C(Nc1ccc(OC(F)(F)Cl)cc1)c1cnc(N2CC[C@@H](O)C2)c(-c2ccn[nH]2)c1
grade ≥3 event rate (per patient, item: platelet decrease; human patients; oral, dose not given, dose-finding study): 14.6%

O=c1cc(CO)occ1[O-].[Cl-].[W+4].c1cc[cH-]c1.c1cc[cH-]c1
oxidation potential (cyclic voltammetry; relative to: Ag/AgCl): 581 mV

CC(C)(C(=O)N1CCOc2c(C#N)cncc2C1)C(F)F
subjects with TEAE (item: vessel puncture site pain; healthy humans, both sexes; oral, 20 mg single dose): 0%

COc1c(O)c(C)cc2c1C(=O)c1c(cc(O)c(O)c1O)C2=O
viability (HK-2 co-cultured with HepaRG; MTT; 16.67 µM, 24 h; relative to: untreated control): 88.6 ± 3.22%

O=C(O)CCCOc1ccc([18F])cc1-c1cc(-c2ccccc2C(F)(F)F)n(-c2ccccc2)n1
radioactivity uptake (gamma counting; male ddY mice, kidney; intravenous, 2.1 MBq, 30 min): 2.77 ± 0.05 SUV

CC1(C)CC[C@]2(NC(=O)C(C)(F)F)CC[C@]3(C)[C@H](C(=O)C=C4[C@@]5(C)C=C(C#N)C(=O)C(C)(C)[C@@H]5CC[C@]43C)[C@@H]2C1
trough concentration (human, plasma; oral, 150 mg once daily, day 17 predose, median): 35.7 ng/mL

O=C(O)CSc1nnc(Br)n1-c1ccc(C2CC2)c2ccccc12
body weight (KM mouse, chronic hyperuricaemia model; dose not given, day 12): 36 g and 32.2 g and 32 g and 27.6 g and 27.4 g and 32.4 g

COc1c(O)c(C)cc2c1C(=O)c1c(O)cccc1C2=O
viability (HK-2 co-cultured with HepaRG; MTT; 16.67 µM, 24 h; relative to: untreated control): 101 ± 11.2%

Cn1cc(Nc2nccc(-c3ccc4c(c3)CN(C3COC3)CC[C@H]4NC(=O)c3cn(C(C)(C)C)nn3)n2)cn1
lymphocyte count change (human, whole blood; 150 mg twice daily, day 14; relative to: pre-dose baseline): -2.21%

COc1cc(Nc2c(C#N)cnc3cc(OCCCN4CCN(C)CC4)c(OC)cc23)c(Cl)cc1Cl
dose-adjusted solubility (FaSSIF; literature solubility over dose): 3.29e-05 mL⁻¹

CN1C[C@H](COc2nccc3c(NCc4ccco4)cc(Cl)nc23)OC1=O
LV dP/dt max (rabbit NZW female, isolated Langendorff heart; 3 µM, 15 min): 1280 mmHg/s

Repeated from above:
O=c1cc(CO)occ1[O-].[Cl-].[W+4].c1cc[cH-]c1.c1cc[cH-]c1
oxidation potential (cyclic voltammetry; relative to: Ag/AgCl): 581 mV

NC[C@@]1(CC(=O)O)[C@@H]2CC[C@H]3C[C@@H]2[C@@H]1C3
unbound AUC(0-inf) (human, severe renal impairment, plasma; dose not given, geometric mean): 5990 ng·h/mL

O=C(O)CSc1nnc(Br)n1-c1ccc(C2CC2)c2ccccc12
body weight (KM mouse, chronic hyperuricaemia model; dose not given, day 12): 36 g and 32.2 g and 32 g and 27.6 g and 27.4 g and 32.4 g
